Published values collected from several papers.
Parts stem from different laboratories: compare values within a part only.

Set 1 — technique: universal PBM; form: double-stranded DNA, one strand shown; matrix: in vitro; tested at: 600 nM; reading: higher = stronger binding; endpoint: E-score
Target: Sal-like protein 4, full length isoform A (SALL4, Homo sapiens, UniProt Q9UJQ4, residues 1-1053)
UniProt Q9UJQ4, sequence (whole entry, looked up): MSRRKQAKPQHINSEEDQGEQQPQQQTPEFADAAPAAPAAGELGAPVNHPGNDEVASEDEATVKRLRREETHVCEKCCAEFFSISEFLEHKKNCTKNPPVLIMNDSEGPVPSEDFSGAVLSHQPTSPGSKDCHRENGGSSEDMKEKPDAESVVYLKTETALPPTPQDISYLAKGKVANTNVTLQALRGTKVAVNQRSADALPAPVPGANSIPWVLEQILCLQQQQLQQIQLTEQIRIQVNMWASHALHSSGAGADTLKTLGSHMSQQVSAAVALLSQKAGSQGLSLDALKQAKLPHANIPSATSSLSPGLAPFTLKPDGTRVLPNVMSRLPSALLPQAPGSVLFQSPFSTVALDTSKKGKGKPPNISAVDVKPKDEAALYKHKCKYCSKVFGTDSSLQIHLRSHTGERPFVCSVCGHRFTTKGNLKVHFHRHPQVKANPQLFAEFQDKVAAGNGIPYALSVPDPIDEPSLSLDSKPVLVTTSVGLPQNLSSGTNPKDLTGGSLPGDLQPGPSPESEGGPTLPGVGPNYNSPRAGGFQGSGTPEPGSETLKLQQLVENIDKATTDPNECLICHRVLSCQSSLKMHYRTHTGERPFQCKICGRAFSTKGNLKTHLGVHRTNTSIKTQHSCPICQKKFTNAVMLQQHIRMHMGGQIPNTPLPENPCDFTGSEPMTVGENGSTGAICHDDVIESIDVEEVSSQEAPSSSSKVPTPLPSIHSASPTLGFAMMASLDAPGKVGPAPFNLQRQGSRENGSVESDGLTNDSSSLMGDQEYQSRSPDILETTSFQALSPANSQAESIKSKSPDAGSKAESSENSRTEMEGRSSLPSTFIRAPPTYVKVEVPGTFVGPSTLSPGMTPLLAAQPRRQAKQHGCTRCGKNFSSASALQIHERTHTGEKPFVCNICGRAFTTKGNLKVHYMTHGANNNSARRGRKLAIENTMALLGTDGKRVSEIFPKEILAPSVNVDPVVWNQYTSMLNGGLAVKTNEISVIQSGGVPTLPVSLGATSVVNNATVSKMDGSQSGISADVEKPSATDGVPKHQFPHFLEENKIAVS
Setting: 8-mer, flanks averaged, mean of replicates
CTTTTATC: 0.12
CGAGGACC: -0.221
CCGAGCGG: -0.358
CCACAGGG: -0.322
GTATCGCA: 0.0163
CCGGTAGG: -0.325
AGATCACA: -0.0204
GGGTTCCA: -0.225
TGGATCAA: 0.161
ACAGTATG: 0.115
GCAATAAC: 0.221
CTAACCCC: -0.244
AGCTTCTC: -0.0654
AAACCGTG: -0.215
AAGTAAAA: 0.254
GCTCCTCC: -0.239
CAGAATAG: 0.0944
GCCCGGAC: -0.36
GCAGGCCC: -0.399
GGTGGAAC: -0.0522
CCGGTAAG: -0.195
GCTCGGCC: -0.344
ATGGGATC: 0.0917
AAAGAAAG: 0.167
GCTCGTAA: -0.0352

Set 2 — technique: protein binding microarray; form: double-stranded DNA, one strand shown; matrix: in vitro; tested at: not given; baseline: not given; reading: higher = stronger binding; endpoint: E-score
Target: Histone acetyltransferase KAT6A, both winged helices, GST fusion (KAT6A, Homo sapiens, UniProt Q92794, residues 1-181)
Setting: 8-mer, flanks averaged, mean of 2 arrays, mostly near background
Residues (chain): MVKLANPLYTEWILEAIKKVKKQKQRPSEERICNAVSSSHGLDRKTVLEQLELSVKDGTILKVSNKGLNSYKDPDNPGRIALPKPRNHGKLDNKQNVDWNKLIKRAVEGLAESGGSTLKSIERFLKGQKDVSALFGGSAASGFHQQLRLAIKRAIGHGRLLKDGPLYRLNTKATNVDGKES
CGCCGGGC: 0.308
CTAATGCC: -0.00199
AACTGACA: -0.132
AGCGCAAT: 0.232
GAATCAAC: 0.0595
CGTCGGGC: 0.28
GGCTGCAA: 0.107
AAGGCCCA: -0.129
AACGGGCG: 0.241
CATCAGGG: -0.127
AGCAATAA: -0.251
CAGACCGA: 0.0503
TATCCATA: -0.181
CAGCTGAC: 0.0821
AACGGCGG: 0.288
AATTTTAC: 0.0693

Set 3 — technique: RNA Bind-n-Seq; form: RNA; matrix: in vitro; tested at: 200 nM; setting: whole 134-nt RNA, ends assumed; with: 150 mM KCl; baseline: input library; reading: higher = stronger binding; endpoint: log2 enrichment
Target: Fragile X messenger ribonucleoprotein 1, C-terminal low-complexity region (Fmr1, Mus musculus, UniProt P35922)
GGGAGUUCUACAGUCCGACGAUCUUCCGCCUCUUUCCGGAGUACAAGAACAACAAACUUUUCCUGACCGGGGAGAGCUAUGCUGGCAUCUACAUCCCCACCCUGGCCGUGCUGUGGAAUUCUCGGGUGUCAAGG: 0.526
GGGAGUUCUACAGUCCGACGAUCAAGUCCUGUGCUACACAUCGUAUGUACCGAAUCGGCCCCGGGCCCCGGGGCCCCGGGAAAGUAUUAUGUUACGCCGUUCGGAUCUGCACUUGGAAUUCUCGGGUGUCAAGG: -0.435
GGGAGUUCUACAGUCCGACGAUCGUCCUGUGCUACACAUCGUAUGUACCGAAUCGGGGUUUUUGGGUUUUUGGGGUUUUUGGAAAGUAUUAUGUUACGCCGUUCGGAUCUGCAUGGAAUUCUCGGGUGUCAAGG: 0.118
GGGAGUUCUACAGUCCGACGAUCAGUCCUGUGCUACACAUCGUAUGUACCGAAUCGGUUUUGGGGUUUUGGGGUUUUGGGAAAGUAUUAUGUUACGCCGUUCGGAUCUGCACUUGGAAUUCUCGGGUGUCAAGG: -0.0303
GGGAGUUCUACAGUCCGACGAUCACCAUGCAGGUGGGCAUCUUUGGGAAGUGGGGCAAGGGGGGGAUAGGGAGGGGGAUAACACUUUGGGAACAGGUGGUCCCAGGUCGUUUCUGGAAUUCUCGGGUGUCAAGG: 0.904
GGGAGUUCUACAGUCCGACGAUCGUCCUGUGCUACACAUCGUAUGUACCGAAUCAAAUUUAAACCCCCAAAUUUUUUUAAAAAAGUAUUAUGUUACGCCGUUCGGAUCUGCACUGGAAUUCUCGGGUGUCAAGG: 0.33
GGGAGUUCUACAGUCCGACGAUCUAACUUUAGAGGAGGAUCUGAUGGAUAUGGCAGUGGACGUGGAUUUGGGGAUGGAUAUAAUGGGUAUGGAGGAGGACCUGGAGGUGGCAAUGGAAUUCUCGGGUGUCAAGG: 0.318
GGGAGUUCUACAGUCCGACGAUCGUCCUGUGCUACACAUCGUAUGUACCGAAUCGGGGUUUGGGGAAAAAAAGGGGAGGGGAAAGUAUUAUGUUACGCCGUUCGGAUCUGCACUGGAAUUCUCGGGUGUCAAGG: 0.474
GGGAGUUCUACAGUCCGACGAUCUGGGAGGUGGAUUUUGUUUAUUUUAUUAGCUCAUUUCCAGGGGUGGGAAUUUUUUUUUAAUAUGUGUCAUGAAUAAAGUUGUUUUUGAAAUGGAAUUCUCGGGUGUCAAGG: 0.213

Set 4 — technique: RNA Bind-n-Seq; form: RNA; matrix: in vitro; tested at: not given; baseline: input RNA pool; reading: higher = stronger binding; endpoint: bound/input enrichment
Target: RING finger protein unkempt homolog, zinc fingers 1-6, GST-SBP tag (UNK, Homo sapiens, UniProt Q9C0B0, residues 30-357)
Setting: RNA with constant flanks, human and mouse sites, ends assumed
Construct (chain): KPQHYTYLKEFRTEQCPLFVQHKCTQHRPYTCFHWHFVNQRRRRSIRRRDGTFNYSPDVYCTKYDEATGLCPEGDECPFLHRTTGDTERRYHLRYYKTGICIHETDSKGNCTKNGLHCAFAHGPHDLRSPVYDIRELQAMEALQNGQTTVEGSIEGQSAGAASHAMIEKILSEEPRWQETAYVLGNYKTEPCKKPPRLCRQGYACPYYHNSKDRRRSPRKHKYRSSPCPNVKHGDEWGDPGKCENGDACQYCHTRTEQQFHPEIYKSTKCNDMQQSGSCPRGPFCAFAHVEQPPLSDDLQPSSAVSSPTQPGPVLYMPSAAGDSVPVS
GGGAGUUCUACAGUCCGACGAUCGUUCGCCUGUAUCGCAAAGCAUUAGAAGUCUUCCCAGAGUUUGCUGCUGCACAUUCCAAUUUAGCAAGUGUACUGCAACAGCAGGGCAAGCUGCAGGAAGCACUGAUGCACUAUAAAGAACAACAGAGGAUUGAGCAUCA: 0.291 ratio
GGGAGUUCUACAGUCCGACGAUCCUGAGUUUGAGGCCGUCCCCGACUCCUUCCUCCCCCUUCCCUCCCCCUUUUUUUUGUUUUCCGUUCCCCUUUCCCCUCCCUUCCCUAUCCCCGACGACCGGAUCCUGAGGAGGCAGCUGCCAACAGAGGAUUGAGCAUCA: 1.32 ratio
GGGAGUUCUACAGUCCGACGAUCACUGCCUUUACCCUGCUGUAUAAUAAACAACCAGACACUUGGCAACUGUUGAUACAGAUGGUAGUCCCGAAUCACUUUUUAUAUGUUUUAACAUUUGAAAUUCAAGUGUACCUGCCAUAACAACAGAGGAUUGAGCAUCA: 0.122 ratio
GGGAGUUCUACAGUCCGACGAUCAGCCAAUGGUGAUCAUGGAAUGGAGGGGAAUAACACUGCAGGGUCUCCAACUGACUUCCUUGAAGAGAGAGUGGACUAUCCGGAUUAUCAGAGCAGCCAGAACUGGCCAGAAGAUGCAAGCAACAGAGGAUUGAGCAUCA: 0.187 ratio
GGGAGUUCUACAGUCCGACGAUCGUUACCAAAAUCACUCUAGAAUCUUUUCUUGCCUGGAAGAAAAGGAAAAGACAAGAAAAGAUUGAUAAACUUGAACAAGAUAUGGAAAGAAGGAAAGCUGACUUCAAAGCAGGGAAAGCACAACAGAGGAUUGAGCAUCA: 0.375 ratio
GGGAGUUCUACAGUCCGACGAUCUCUCCCCUCGAAAUUGUUGAAAUGUUUGCGGGACUUUCUUGUUUCCUCAAAGACUCCAGUGAUGUUUCCCAAACACUGCUGGAUGAUUUUCGGAUAUGGCAAGGAUAUAACUUUCUUUGUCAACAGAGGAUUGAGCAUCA: 0.218 ratio
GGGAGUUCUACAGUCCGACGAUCAAUCUUCAAUGAGUAGACAUAUUCCUCAGUUCUGUGGUGUUCUCGGUCACACAUUUAUGGAGUUUCUGAAGGGCAGUGGAGAUUACUGCCAGGCACAGCACGACCUCUAUGCAGACAAGUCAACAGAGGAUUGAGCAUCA: 0.29 ratio
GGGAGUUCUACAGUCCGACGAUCAGAUUCGUUCAGAAAUGCGUUCUUCCAUUAAAUGAGGAUAGUCCGUUGAUGUAUCAGCCACAAAAAAUGGACUUGACUAUGCACUCAGCCUUAGAUUGUAAGCAAAAGAAAUCAAGGUCACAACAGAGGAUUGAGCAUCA: 0.0587 ratio

A few entries again (set 2):
CGCCGGGC: 0.308
CTAATGCC: -0.00199
AACTGACA: -0.132
AGCGCAAT: 0.232
GAATCAAC: 0.0595
CGTCGGGC: 0.28
